Measurements pooled from the literature.
Each line is one published result; not all experiments were run side by side. ± marks the error that the study gave.
Method: steady-state kinetics
B1: Nudt8 (Mus musculus, UniProt Q9CR24); chain MLPDGLSAEDEQRCRQLLARTTARLRSRPAAAAVLVPLCLVRGVPALLYTLRSSRLVGRHKGEVSFPGGKCDPDDQDVIHTALRETQEELGLEVPKEHVWGVLQPVYDREKATIVPVLANVGPLDLQSLRPNLEEVDEVFEMSLAHLLQTQNQGYTHFCQGGHFSYTLPVFLHGPHRVWGLTAVITELTLKLLAPGFYQPSLAVPELPRG
B2: HCT R356E (Coleus scutellarioides, UniProt E8ZAP2); chain MKIHVRDSTLVRPSAATPAVSLWNSNVDLVVPNFHTPSVYFYRPSGADNFFDTAVMKAALGRALVSFYPMAGRLKRDEDGRVEIDCNAEGVLFVEAESDGTVDDYGDFAPSLELRRLIPAVDYSQGISAYPLLVLQVTFFKCGGVSLGVGMQHHAADGFSGLHFINTWSDMARGLDITLPPFIDRTLLSARDPPQPQFKHVEYQPPPAMKTYEPAETVVSIFKLTKDQLTTLKAKSKEDGNTTTYSSYEMLSGHVWRCTCLARGLPEEQETKLYIATDGRSRLQPQLPPGYFGNVIFTATPLAVAGDLGSKPVWYAASKIHDALARMDNDYLRSALDFLELQPDLKALVRGAHTFECPNLGITSWVRLPIHDADFGWGRPIFMGPGGIAYEGLSFVLPSPTNDGSLSVAISLQAEHMKLFEKLLYQI
B3: DdmC (Stenotrophomonas maltophilia, UniProt Q5S3I3); chain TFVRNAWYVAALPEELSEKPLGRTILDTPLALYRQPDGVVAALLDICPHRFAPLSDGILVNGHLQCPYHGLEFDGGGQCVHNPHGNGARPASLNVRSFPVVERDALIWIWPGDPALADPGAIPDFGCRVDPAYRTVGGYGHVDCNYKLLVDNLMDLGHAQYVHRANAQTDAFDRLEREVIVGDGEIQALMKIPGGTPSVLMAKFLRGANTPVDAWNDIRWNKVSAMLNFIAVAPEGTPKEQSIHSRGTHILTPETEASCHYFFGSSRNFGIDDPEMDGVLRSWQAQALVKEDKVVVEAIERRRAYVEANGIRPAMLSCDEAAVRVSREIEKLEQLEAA
B4: pol D141A/E143A/G245D (Thermococcus kodakarensis, UniProt P77933); chain 1 MILDTDYITEDGKPVIRIFKKENGEFKIEYDRTFEPYFYALLKDDSAIEEVKKITAERHGTVVTVKRVEKVQKKFLGRPVEVWKLYFTHPQDVPAIRDKIREHPAVIDIYEYDIPFAKRYLIDKGLVPMEGDEELKMLAFAIATLYHEGEEFAEGPILMISYADEEGARVITWKNVDLPYVDVVSTEREMIKRFLRVVKEKDPDVLITYNGDNFDFAYLKKRCEKLGINFALGRDGSEPKIQRMDDRFAVEVKGRIHFDLYPVIRRTINLPTYTLEAVYEAVFGQPKEKVYAEEITTAWETGENLERVARYSMEDAKVTYELGKEFLPMEAQLSRLIGQSLWDVSRSSTGNLVEWFLLRKAYERNELAPNKPDEKELARRRQSYEGGYVKEPERGLWENIVYLDFR; chain 2 SLYPSIIITHNVSPDTLNREGCKEYDVAPQVGHRFCKDFPGFIPSLLGDLLEERQKIKKKMKATIDPIERKLLDYRQRAIKILAN; chain 3 NSYYGYYGYARARWYCKECAESVTAWGREYITMTIKEIEEKYGFKVIYSDTDGFFATIPGADAETVKKKAMEFLKYINAKLPGALELEYEGFYKRGFFVTKKKYAVIDEEGKITTRGLEIVRRDWSEIAKETQARVLEALLKDGDVEKAVRIVKEVTEKLSKYEVPPEKLVIHEQITRDLKDYKATGPHVAVAKRLAARGVKIRPGTVISYIVLKGSGRIGDRAIPFDEFDPTKHKYDAEYYIENQVLPAVERILRAFGYRKEDLRYQKTRQVGLSAWLKPKGT
B5: ycjS (Escherichia coli, UniProt P77503); chain MKSAMTSSPLRVAIIGAGQVADKVHASYYCTRNDLELVAVCDSRLSQAQALAEKYGNASVWDDPQAMLLAVKPDVVSVCSPNRFHYEHTLMALEAGCHVMCEKPPAMTPEQAREMCDTARKLGKVLAYDFHHRFALDTQQLREQVTNGVLGEIYVTTARALRRCGVPGWGVFTNKELQGGGPLIDIGIHMLDAAMYVLGFPAVKSVNAHSFQKIGTQKSCGQFGEWDPATYSVEDSLFGTIEFHNGGILWLETSFALNIREQSIMNVSFCGDKAGATLFPAHIYTDNNGELMTLMQREIADDNRHLRSMEAFINHVQGKPVMIADAEQGYIIQQLVAALYQSAETGTRVEL
B6: GTPBP3 E315A (Homo sapiens, UniProt Q969Y2); chain TRRSSGAPAPGSGATIFALSSGQGRCGIAVIRTSGPASGHALRILTAPRDLPLARHASLRLLSDPRSGEPLDRALVLWFPGPQSFTGEDCVEFHVHGGPAVVSGVLQALGSVPGLRPAEAGEFTRRAFANGKLNLTEVEGLADLIHAETEAQRRQALRQLDGELGHLCRGWAETLTKALAHVEAYIDFGEDDNLEEGVLEQADIEVRALQVALGAHLRDARRGQRLRSGVHVVVTGPPNAGKSSLVNLLSRKPVSIVSPEPGTTRDVLETPVDLAGFPVLLSDTAGLREGVGPVAQEGVRRARERLEQADLILAMLDASDLASPSSCNFLATVVASVGAQSPSDSSQRLLLVLNKSDLLSPEGPGPGPDLPPHLLLSCLTGEGLDGLLEALRKELAAVCGDPSTDPPLLTRARHQHHLQGCLDALGHYKQSKDLALAAEALRVARGHLTRLTGGGGTEEILDIIFQDFCVGK
B7: LYPLA1 (Homo sapiens, UniProt O75608); chain MCGNNMSTPLPAIVPAARKATAAVIFLHGLGDTGHGWAEAFAGIRSSHIKYICPHAPVRPVTLNMNVAMPSWFDIIGLSPDSQEDESGIKQAAENIKALIDQEVKNGIPSNRIILGGFSQGGALSLYTALTTQQKLAGVTALSCWLPLRASFPQGPIGGANRDISILQCHGDCDPLVPLMFGSLTVEKLKTLVNPANVTFKTYEGMMHSSCQQEMMDVKQFIDKLLPPID
B8: enzyme (Thermobifida fusca, UniProt Q47RK4); chain MTDVYILDAVRTPFGRYGGALSGIRPDDLAAHVLRALAERSPGLDPAAVDDVFFGDANGAGEDNRNVARMAALLAGWPTSVPGVTLNRLCGSGMESVIAANRAIAVGDASLAVAGGVESMSRAPWVLPKPAQGFPTGHETLYSTTLGWRMVNPAMPEQWTVSLGESTEQVAATYGISRAEQDAFALRSHERAARAWAEGVFDAEITQIPGAELERDESIRETSAEKLAALKPAFRPDGTITAGNASPLNDGAAALLIGDAAAAERVGREPLARIVSRGVAAVDPDVFGIGPVQAAEIALRRAGIGWDDLSVVELNEAFAAQSLACLKLWPDLDPEIVNPNGGAIAIGHPLGASGARIVGTLAHELHRRGGGWGLAAICIGVGQGLAVVLHR
B9: SUOX P184A (Homo sapiens, UniProt P51687); chain ESTHIYTKEEVSSHTSPETGIWVTLGSEVFDVTEFVDLHPGGPSKLMLAAGGPLEPFWALYAVHNQSHVRELLAQYKIGELNPEDKVAPTVETSDPYADDPVRHAALKVNSQRPFNAEPPPELLTENYITPNPIFFTRNHLPVPNLDPDTYRLHVVGAPGGQSLSLSLDDLHNFPRYEITVTLQCAGNRRSEMTQVKEVKGLEWRTGAISTARWAGARLCDVLAQAGHQLCETEAHVCFEGLDSDPTGTAYGASIPLARAMDPEAEVLLAYEMNGQPLPRDHGFPVRVVVPGVVGARHVKWLGRVSVQPEESYSHWQRRDYKGFSPSVDWETVDFDSAPSIQELPVQSAITEPRDGETVESGEVTIKGYAWSGGGRAVIRVDVSLDGGLTWQVAKLDGEEQRPRKAWAWRLWQLKAPVPAGQKELNIVCKAVDDGYNVQPDTVAPIWNLRGVLSNAWHRVHVYVSP
Chain of UniProt P62694 (whole entry, looked up): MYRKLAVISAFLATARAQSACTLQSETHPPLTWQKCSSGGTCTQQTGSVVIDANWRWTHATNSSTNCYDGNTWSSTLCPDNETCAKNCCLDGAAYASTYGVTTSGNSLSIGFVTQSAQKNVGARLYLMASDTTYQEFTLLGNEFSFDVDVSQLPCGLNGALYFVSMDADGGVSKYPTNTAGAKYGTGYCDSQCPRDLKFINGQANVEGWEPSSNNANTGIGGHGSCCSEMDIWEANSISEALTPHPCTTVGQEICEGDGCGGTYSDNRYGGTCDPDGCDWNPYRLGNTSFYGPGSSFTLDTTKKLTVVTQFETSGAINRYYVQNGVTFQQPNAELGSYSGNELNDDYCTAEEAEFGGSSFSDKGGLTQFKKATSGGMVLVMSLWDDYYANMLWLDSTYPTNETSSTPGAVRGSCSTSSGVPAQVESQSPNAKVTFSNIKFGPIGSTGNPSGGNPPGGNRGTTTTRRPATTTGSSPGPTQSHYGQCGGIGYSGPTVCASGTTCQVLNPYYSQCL
Chain of UniProt P07914 (whole entry, looked up): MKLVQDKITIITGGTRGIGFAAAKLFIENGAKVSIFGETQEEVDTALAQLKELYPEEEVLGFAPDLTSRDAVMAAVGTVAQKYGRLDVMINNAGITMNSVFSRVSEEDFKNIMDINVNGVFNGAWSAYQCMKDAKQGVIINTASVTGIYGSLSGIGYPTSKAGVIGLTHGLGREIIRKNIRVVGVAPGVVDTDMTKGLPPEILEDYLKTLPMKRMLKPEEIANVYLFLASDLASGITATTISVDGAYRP
Chain of UniProt P04079 (whole entry, looked up): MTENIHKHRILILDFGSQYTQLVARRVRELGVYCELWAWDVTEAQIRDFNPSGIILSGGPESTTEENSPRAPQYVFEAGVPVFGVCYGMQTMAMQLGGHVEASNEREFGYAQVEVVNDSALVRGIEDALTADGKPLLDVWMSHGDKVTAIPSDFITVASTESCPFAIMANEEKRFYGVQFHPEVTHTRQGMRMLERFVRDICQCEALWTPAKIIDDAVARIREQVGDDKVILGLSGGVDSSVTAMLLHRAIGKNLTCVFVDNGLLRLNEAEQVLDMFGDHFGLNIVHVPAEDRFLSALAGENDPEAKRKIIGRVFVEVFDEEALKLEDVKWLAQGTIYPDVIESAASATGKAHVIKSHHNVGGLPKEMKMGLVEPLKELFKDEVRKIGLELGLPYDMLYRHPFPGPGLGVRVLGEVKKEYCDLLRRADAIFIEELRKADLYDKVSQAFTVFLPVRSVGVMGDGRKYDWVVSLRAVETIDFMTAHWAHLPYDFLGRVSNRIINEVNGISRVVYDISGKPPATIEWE
Chain of UniProt P49419 (whole entry, looked up): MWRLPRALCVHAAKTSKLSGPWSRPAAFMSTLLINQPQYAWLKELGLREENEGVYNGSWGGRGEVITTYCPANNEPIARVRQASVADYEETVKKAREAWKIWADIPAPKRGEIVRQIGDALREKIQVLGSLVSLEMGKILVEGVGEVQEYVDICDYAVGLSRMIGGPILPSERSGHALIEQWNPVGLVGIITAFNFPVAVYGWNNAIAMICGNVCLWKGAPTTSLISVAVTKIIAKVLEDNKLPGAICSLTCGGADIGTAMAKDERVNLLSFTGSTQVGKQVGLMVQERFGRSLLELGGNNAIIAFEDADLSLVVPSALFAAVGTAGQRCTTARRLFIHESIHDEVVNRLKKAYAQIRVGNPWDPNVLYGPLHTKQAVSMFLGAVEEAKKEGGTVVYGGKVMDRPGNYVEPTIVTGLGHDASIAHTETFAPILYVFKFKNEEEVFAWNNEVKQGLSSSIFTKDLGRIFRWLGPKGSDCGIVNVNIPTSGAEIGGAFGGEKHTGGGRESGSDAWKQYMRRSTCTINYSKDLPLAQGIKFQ

| Substance | substrate | pH | temperature | notes | with | kcat/Km |
| --- | --- | --- | --- | --- | --- | --- |
| B1 (Nudt8) | CCC(=O)SCCNC(=O)CCNC(=O)[C@H](O)C(C)(C)COP(=O)(O)OP(=O)(O)OC[C@H]1O[C@@H](n2cnc3c(N)ncnc32)[C@H](O)[C@@H]1OP(=O)(O)O | pH 8.5 |  |  | 2 mM Mn2+ | 8170 M⁻¹ s⁻¹ |
| B2 (HCT R356E) | NCc1ccc(O)c(O)c1 | pH 8 |  | pseudo-first-order | p-coumaroyl CoA | 410 ± 51.8 M⁻¹ s⁻¹ |
| B3 (DdmC) | COc1c(Cl)ccc(Cl)c1C(=O)O |  |  | apparent | NADH 1 mM | 2300 ± 410 M⁻¹ s⁻¹ |
| B4 (pol D141A/E143A/G245D) | Nc1nc2c(ncn2[C@H]2C[C@H](O)[C@@H](COP(=O)(O)OP(=O)(O)OP(=O)(O)O)O2)c(=O)[nH]1 | pH 8 | 55 °C |  |  | 760000 ± 100000 M⁻¹ s⁻¹ |
| B5 (ycjS) | OC[C@H]1OC[C@H](O)[C@@H](O)[C@@H]1O | pH 8 | 30 °C |  | NAD+ 2.0 mM | 81 ± 4 M⁻¹ s⁻¹ |
| BaiA1 (Clostridium scindens, UniProt P07914) | C[C@H](CCC(=O)SCCNC(=O)CCNC(=O)[C@H](O)C(C)(C)COP(=O)(O)OP(=O)(O)OC[C@H]1O[C@@H](n2cnc3c(N)ncnc32)[C@H](O)[C@@H]1OP(=O)(O)O)[C@H]1CC[C@H]2[C@@H]3CC[C@@H]4CC(=O)CC[C@]4(C)[C@H]3CC[C@]12C | pH 8.7 | 37 °C |  | NADH | 84300 M⁻¹ s⁻¹ |
| B6 (GTPBP3 E315A) | Nc1nc2c(ncn2[C@@H]2O[C@H](COP(=O)(O)OP(=O)(O)OP(=O)(O)O)[C@@H](O)[C@H]2O)c(=O)[nH]1 | pH 8 | 37 °C | KCl 300 mM |  | 93 M⁻¹ s⁻¹ |
| B7 (LYPLA1) | CN(C)c1ccc(/N=N/c2ccc(C(=O)NCCCn3cc(CCCCCCCCCCCCCCCC(=O)SC[C@H](NC(=O)c4cc5ccc(O)cc5oc4=O)C(=O)N4CCOCC4)nn3)cc2)cc1 | pH 7.4 | 37 °C |  |  | 3200 M⁻¹ s⁻¹ |
| B8 (enzyme) | CC(C)(COP(=O)(O)OP(=O)(O)OC[C@H]1O[C@@H](n2cnc3c(N)ncnc32)[C@H](O)[C@@H]1OP(=O)(O)O)[C@@H](O)C(=O)NCCC(=O)NCCSC(=O)CC(=O)O | pH 7.4 | 37 °C |  |  | 1 M⁻¹ s⁻¹ |
| ALDH7A1 (Homo sapiens, UniProt P49419) | N[C@@H](CCCC=O)C(=O)O | pH 8 | 26 °C |  | NAD+ 2.5 mM | 4700 ± 600 M⁻¹ s⁻¹ |
| GMPS (Escherichia coli, UniProt P04079) | O=c1[nH]c(=O)c2ncn([C@@H]3O[C@H](COP(=O)(O)O)[C@@H](O)[C@H]3O)c2[nH]1 |  |  | apparent |  | 1400 M⁻¹ s⁻¹ |
| cbh1 (Trichoderma reesei, UniProt P62694) | O=[N+]([O-])c1ccccc1O[C@@H]1O[C@H](CO)[C@@H](O[C@@H]2O[C@H](CO)[C@@H](O)[C@H](O)[C@H]2O)[C@H](O)[C@H]1O | pH 5 | 25 °C | apparent |  | 9.5 M⁻¹ s⁻¹ |
| B9 (SUOX P184A) | O=S(O)O | pH 8 | 25 °C |  | oxidized cyt c 400 µM | 6.1e+06 M⁻¹ s⁻¹ |
| enzyme (Thermus thermophilus, UniProt Q5SJ64) | Nc1nc2c([nH]c(=O)n2[C@H]2C[C@H](O)[C@@H](COP(=O)(O)OP(=O)(O)OP(=O)(O)O)O2)c(=O)[nH]1 | pH 7.5 | 37 °C |  |  | 6500 ± 1000 M⁻¹ s⁻¹ |

A few entries again:
| Substance | substrate | pH | temperature | notes | with | kcat/Km |
| --- | --- | --- | --- | --- | --- | --- |
| B2 (HCT R356E) | NCc1ccc(O)c(O)c1 | pH 8 |  | pseudo-first-order | p-coumaroyl CoA | 410 ± 51.8 M⁻¹ s⁻¹ |
| ALDH7A1 (Homo sapiens, UniProt P49419) | N[C@@H](CCCC=O)C(=O)O | pH 8 | 26 °C |  | NAD+ 2.5 mM | 4700 ± 600 M⁻¹ s⁻¹ |
